Measured values collected from several papers.
A part holds a random share of what one study measured.

Block 1
Cell line: HEK-293T/ACE2
Concentration: 10 µM
Time: 16 h
Reference: vehicle
SMILES	viability [%]
Nc1ccc(S(=O)(=O)Nc2nccs2)cc1	98.7
CCC(=O)NCC[C@@H]1CCc2ccc3c(c21)CCO3	97.9
C[C@H](CCC(=O)O)[C@H]1CC[C@H]2[C@@H]3[C@H](O)C[C@@H]4C[C@H](O)CC[C@]4(C)[C@H]3CC[C@]12C	102

Block 2
Target: RING finger protein unkempt homolog, zinc fingers 1-6, GST-SBP tag (UNK, Homo sapiens, UniProt Q9C0B0, residues 30-357)
UniProt Q9C0B0, sequence (30-357, looked up): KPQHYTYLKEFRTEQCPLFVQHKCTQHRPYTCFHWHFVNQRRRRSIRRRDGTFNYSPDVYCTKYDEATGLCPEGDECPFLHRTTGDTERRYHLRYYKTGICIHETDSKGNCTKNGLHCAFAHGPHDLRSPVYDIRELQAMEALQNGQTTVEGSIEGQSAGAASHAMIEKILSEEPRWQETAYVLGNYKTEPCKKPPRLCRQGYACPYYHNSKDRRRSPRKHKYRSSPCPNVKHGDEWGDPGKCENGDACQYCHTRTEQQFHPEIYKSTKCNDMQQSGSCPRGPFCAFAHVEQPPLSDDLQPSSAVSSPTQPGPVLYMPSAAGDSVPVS
Method: RNA Bind-n-Seq
Molecule type: RNA
Matrix: in vitro
Concentration: not given
Notes: RNA with constant flanks, human-mouse chimeric sites, ends assumed
Reference: input RNA pool
Direction: higher = stronger binding
Constant ends, left off below: GGGAGUUCUACAGUCCGACGAUC … CAACAGAGGAUUGAGCAUCA
Strand	bound/input enrichment
CCAAUCGUGGAGCAGUACUUGAAGACAAAAAAGAACUCUAAUAAUUUAAUCAUCAAGUACAUUAGCUGCCGCCUGCUGACACUCAUCAUUAUACUGUUAGCGUGUAUCUACCUGGGCUAU	0.407 ratio
GAUCUCGGGCCCUCCCCAGGGGCCUCCUUUCGUAUAGUCACUGCUUCUGCAUCAGAUACUUUCAGCUGCAACUCCCUACUGGGUGGGGCACCUAUCUCAGGCAGAAGGUUUUGGUACCCU	0.112 ratio
UAAGUCCUGUGCCAGCACUUCGCUCAUAAAGUUUUAAAUUCUGGACCAAUAGUGUUUGUUUCCUGAUUUUUGUAUUCAAUACUUUAUCUAGUAUGUAACUCACUCUUACUGAUAAUAAAA	0.888 ratio
CUUAAUGUUAAUAUUUUUGAAUAAAUGAAGCUAAAAUGUCUGCUUUUGGUACAACACGCAUUAAUAAAAGGUUAAGUUUUGUUUUCCCUCCACUGAAUAUUUAACAUACAUCUCAGAAAC	0.329 ratio
CCCCAAUUACCAUCUGUGGUCUGGAACUGCACUCUCUUUUUUAAAAAACAUGUAUACAUUUUAGGGCUGUAGAUUUACUUUCCUAUUUUUGUUUUUCAUUGCUGACUUUUGAGCACAGAA	1.44 ratio
GGAUCUUUGGGACUGUUUUGCUUGAUUGGUCAUUGAUAGCUUAACAAACAUGGAGAUAAGAUUAGAAAUCUUGACAUCAACAGGUAUUAAGCAGAAAAAACCAUGGCCACGUGUCUCCUG	0.138 ratio
CAGGGCAUCAUCUCUCGUGCUGUUAGACACCUGUUCAAGAGUAUUGAAGAAAAAAAAACCUCAGCGAUUAAAAAUGGGCUGCCCCCUCCUGAAUUCAAAGUGAAUGCCCAGUUCCUAGAG	0.637 ratio
CGCUGGCCCAAGCUGAUGGACUCUGAUGGCCUCCAUCUCUCAGGCACGUGUGCCUUCUCUUAGUCCCUGUUUUCGGGAUGUUAUGAAUCUCAGUACUGUUUGACAGAAGCAGUUAUGUUG	0.177 ratio

Block 3
Target: Replicase polyprotein 1ab, nsp13 helicase (rep, Severe acute respiratory syndrome coronavirus 2, UniProt P0DTD1)
Action: inhibitor
Organism: SARS-CoV-2
SMILES	IC50 [µM]
CC(C)N(CCC(=O)c1ccc2ccccc2c1)Cc1ccccc1	1.9
S=C(S)N1CCCC1	3.22
CCOC(=O)Nc1ccc(NCc2ccc(F)cc2)nc1N	10.3
N=C(N)NN=C1C=CC(=NNC(N)=S)C=C1	299
CN(C)C(=S)SSC(=S)N(C)C	0.62
COC(=O)C1=C(C)NC(C)=C(C(=O)OC)C1c1ccccc1[N+](=O)[O-]	8.11
CC(C)Nc1cccnc1N1CCN(C(=O)c2cc3cc(NS(C)(=O)=O)ccc3[nH]2)CC1	39.7
COc1cc2c(cc1OC)-c1cc3ccc(OC)c(OC)c3c[n+]1CC2	109
COc1cc(C(=S)N2CCOCC2)ccc1O	58.2
COCCCOc1ccnc(C[S+]([O-])c2nc3ccccc3[nH]2)c1C (stereo not shown)	27.9
O=C1C2CC=CCC2C(=O)N1SC(Cl)(Cl)Cl (stereo not shown)	1.86
O=[N+]([O-])C(Br)(CO)CO	3.35
CC(=O)C(=Cc1cc(O)c(O)c([N+](=O)[O-])c1)C(C)=O	7.07
COC(=O)C1=C(C)NC(C)=C(C(=O)OCC(C)C)C1c1ccccc1[N+](=O)[O-] (stereo not shown)	9.65
C[C@H](NC(=O)/C(C#N)=C/c1cccc(Br)n1)c1ccccc1	15.5

Block 4
Target: POU, POU domain (Salpingoeca helianthica)
Method: Spec-seq
Molecule type: double-stranded DNA, one strand shown
Matrix: in vitro
Concentration: not given
Notes: whole probe, mean of replicates
Reference: not given
Direction: lower = stronger binding
Constant ends, left off below: GAGTCGTCTCGTCAGCACA … CCGTAGAGCACTCAGGTC
Residues (chain): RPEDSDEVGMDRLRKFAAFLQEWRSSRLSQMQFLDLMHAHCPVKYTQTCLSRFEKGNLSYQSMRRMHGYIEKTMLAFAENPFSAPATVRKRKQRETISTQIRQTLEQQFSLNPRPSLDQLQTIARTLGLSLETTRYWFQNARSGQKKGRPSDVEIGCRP
Strand	relative binding energy [ln ratio]
TGCTGTA	1.17
TGCTCGC	1.65
TGTTAAT	0.0517
TGCGTTT	1.14
GAGTAAT	0.7

Block 5
Target: Replicase polyprotein 1ab, main protease (rep, Severe acute respiratory syndrome coronavirus 2, UniProt P0DTD1)
Read-out: enzyme activity
Action: inhibitor
Concentration: 20 µM
Notes: hit confirmation
Structure (SMILES)	inhibition [%]
COc1ccc(OC)c2c(=S)c3ccccc3[nH]c12	95.2
CCOC(=S)SSC(=S)OCC	94.6
O=C1C(=Cc2cccnc2)C(=O)c2ccccc21	75.7

For quick reference, copied from above (block 3):
SMILES	IC50 [µM]
COc1cc(C(=S)N2CCOCC2)ccc1O	58.2
COCCCOc1ccnc(C[S+]([O-])c2nc3ccccc3[nH]2)c1C (stereo not shown)	27.9
O=C1C2CC=CCC2C(=O)N1SC(Cl)(Cl)Cl (stereo not shown)	1.86
